Assay results pooled from the literature.
Every numbered part comes from another study and shows a few of its results, in no order.

Study 1
Target: Ras GTPase-activating protein-binding protein 1, full length (G3BP1, Homo sapiens, UniProt Q13283)
Sequence of UniProt Q13283 (whole entry, looked up): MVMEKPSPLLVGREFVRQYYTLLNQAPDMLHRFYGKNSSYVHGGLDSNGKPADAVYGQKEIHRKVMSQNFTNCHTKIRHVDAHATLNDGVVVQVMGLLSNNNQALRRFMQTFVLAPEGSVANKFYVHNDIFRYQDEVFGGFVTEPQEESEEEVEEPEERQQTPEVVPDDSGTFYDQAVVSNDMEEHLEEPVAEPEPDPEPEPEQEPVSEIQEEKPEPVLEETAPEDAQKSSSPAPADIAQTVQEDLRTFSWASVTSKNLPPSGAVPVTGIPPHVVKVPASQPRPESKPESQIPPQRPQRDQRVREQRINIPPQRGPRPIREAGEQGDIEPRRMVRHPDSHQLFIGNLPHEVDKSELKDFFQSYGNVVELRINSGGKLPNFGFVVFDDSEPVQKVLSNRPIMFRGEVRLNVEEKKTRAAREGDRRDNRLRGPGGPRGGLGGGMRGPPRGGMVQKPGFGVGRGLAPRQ
Technique: RNA Bind-n-Seq
Molecule type: RNA
Matrix: in vitro
Concentration: 200 nM
Setting: whole 134-nt RNA, ends assumed
Together with: 150 mM LiCl
Reference: input library
Direction: higher = stronger binding
Library: 7-deaza-guanosine replaces G
Shared flanks, not repeated: GGGAGUUCUACAGUCCGACGAUC … UGGAAUUCUCGGGUGUCAAGG
`UCCUGUGCUACACAUCGUAUGUACCGAAUCGGGGAAAAAGGGGUGGGGUUUUUUUGGGGAAAGUAUUAUGUUACGCCGUUCGGAUCUGCA` gave a log2 enrichment of -1.18.
`GUCCUGUGCUACACAUCGUAUGUACCGAAUCGGGUUUUUGGGUUUGGGUUUUUUUGGGAAAGUAUUAUGUUACGCCGUUCGGAUCUGCAC` gave a log2 enrichment of -1.19.
The log2 enrichment of `CACAGACAACACGCACCCACACAGACACAGAGGGAAGGGGUUGGGAUGGGGACAGGGUGCACAGCAGGGCGGGGUAGGACCCCAACCCCU` is reported as 0.52.
The log2 enrichment of `CUCAAGUCCUGUGCUACACAUCGUAUGUACCGAAUCGGUUGGGGUUGGUUGGGAAAGUAUUAUGUUACGCCGUUCGGAUCUGCACUUCCA` is reported as 0.354.
For `GCAGGAAGUAAAAACAAAAAAAAAUGCUUCGGAUAGUGGCAGGGGUGGGGGUUGCUAAGGAAAGGGUGGGAUGGGAGUGGGUAAAGAGUU`, the log2 enrichment was 0.285.
With `ACCAUGCAGGUGGCCAUCUUUGGGAAGUGGGGCAAGGGGGGGAUAGGGAGGGGGGUAACACUUUGGGAACAGGUGGUCCCAGGUCGUUUC` the log2 enrichment was -0.458.
`CCUCAAGUCCUGUGCUACACAUCGUAUGUACCGAAUCGGGUGGGGUGGGUGGAAAGUAUUAUGUUACGCCGUUCGGAUCUGCACUUCCAG` has a log2 enrichment of -0.102.
The log2 enrichment of `ACCAUGCAGGGGGGCAUCUUUGGGAAGUGGGGCAAGGGGGGGAUAGGGAGGGGGGUAACACUUUGGGAACAGGUGGUCCCAGGUCGUUUC` is reported as -0.186.

Study 2
Target: RING finger protein unkempt homolog, zinc fingers 1-6, GST-SBP tag (UNK, Homo sapiens, UniProt Q9C0B0, residues 30-357)
Technique: RNA Bind-n-Seq
Molecule type: RNA
Matrix: in vitro
Concentration: not given
Setting: RNA with constant flanks, human and mouse sites, ends assumed
Reference: input RNA pool
Direction: higher = stronger binding
Shared flanks, not repeated: GGGAGUUCUACAGUCCGACGAUC … CAACAGAGGAUUGAGCAUCA
Residues (chain): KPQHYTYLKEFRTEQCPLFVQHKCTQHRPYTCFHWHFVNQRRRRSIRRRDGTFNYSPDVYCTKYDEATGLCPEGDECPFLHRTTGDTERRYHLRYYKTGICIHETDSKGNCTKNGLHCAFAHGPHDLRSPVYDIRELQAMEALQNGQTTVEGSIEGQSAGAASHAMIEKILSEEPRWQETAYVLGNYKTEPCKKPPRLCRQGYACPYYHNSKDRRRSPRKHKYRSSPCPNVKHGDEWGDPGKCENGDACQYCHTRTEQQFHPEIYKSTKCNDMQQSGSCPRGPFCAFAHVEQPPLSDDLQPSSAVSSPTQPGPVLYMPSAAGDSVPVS
With `CUUUGAAUCUAAGGGAUAUAAAAAGAACCUAAUUACAGUAGAUACAAUGAAAAUAAUGGCUAUAGAUGUUUGGACUGGAAGCAGUGUGGCCAAUAUGACUUAAAGAGACCUUAAAAUAUA` the bound/input enrichment was 31.7 ratio.
`AAAGAAGUUGAAUCCCAGCUUCCCGAAAAAGUGGAAUAUGUGAUCAAGUGUGACAUGUCAGCUCUGCAGAAGAUUCUGUAUCGCCAUAUGCAAGCCAAGGGGAUCCUUCUCACAGAUGGU` gave a bound/input enrichment of 0.0912 ratio.
With `CUCAACACGGUGAAGCAGAAGCUCUUCACCGAGGUGGAGGGGACCUGCACAGGGAAGUAUGGCUUUGUAAUUGCUGUCACCACCAUUGACAAUAUUGGUGCUGGUGUGAUCCAGCCAGGC` the bound/input enrichment was 0.0766 ratio.
`UGUUGUGACCCAUUUAACAUACACAAGAAAUUAGCCAAAAAAAAUUUGCAUGUAAUUGACUUAGAUGAUGCCACUUUUCUGAGUGCUAAAUUUGGAAGACAGCUUGUACCUGGUUGGAAG` has a bound/input enrichment of 12.8 ratio.
With `AUUGCAGCUAAAUAUCAGUUGGAUCCCACUGCUUCCAUUUCUGCAAAAGUCAACAACUCUAGCUUAAUUGGAGUAGGCUAUACUCAGACUCUGAGGCCUGGUGUGAAGCUUACACUCUCU` the bound/input enrichment was 0.192 ratio.
`CGAGCGUCGGUUGCCCGACAUGUGAGUGCCAUUCCUUGGGGCAUUUCUGCCACUGCAGCCCUCAGGCCUGCUGCAUGUGGAAGAACGAGCUUGACAAAUUUAUUGUGUUCUGGUUCCAGU` has a bound/input enrichment of 0.0984 ratio.
For `AAAGGACAUUUAUUUGUUCUUUGUCAAGCUGUAAAUACUCUACUAAGUUUGGAAGAGUCUUCAGAACUUCUUCAUCUGGUUCCUGUGGGACGAGUGAAGCACUUAGUGUUGACCUUUCCA`, the bound/input enrichment was 0.0586 ratio.
`ACCUCUCUAGUAUGUUCUGUGACUCUGCUCAUUACAAUCCUGUGCUCUACAUUGAUCCUUGUAGCAGUUUUCAAAUAUGGCCAUUUUUCCCUAUAAGUUUUAUGUAGUUAAAUGCUUCCU` has a bound/input enrichment of 4.15 ratio.

Study 3
Target: RNA binding protein fox-1 homolog 2, RRM domain, GST-SBP tag (RBFOX2, Homo sapiens, UniProt O43251-10, residues 100-194)
Technique: RNA Bind-n-Seq
Molecule type: RNA
Matrix: in vitro
Concentration: 365 nM
Setting: natural RNA segment, single round, ends assumed
Reference: no-protein control
Direction: higher = stronger binding
Shared flanks, not repeated: GGGAGUUCUACAGUCCGACGAUC … UGGAAUUCUCGGGUGCCAA
Target sequence (chain): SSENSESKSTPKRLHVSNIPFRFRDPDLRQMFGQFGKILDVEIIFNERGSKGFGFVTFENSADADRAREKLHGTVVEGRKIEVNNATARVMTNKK
`UUCCUCAACCCCCAAACAAAACAAACAAACUUCCCUGGCUUCGCACCUGCCUGGGGCCUCGCAGCGGGGCCAGGGCUCCGCCUGCUGAUCGGGGGUUGUGAGCAGCGCGG`: “RBNS enrichment (R)” 1.09.
`AUGCUCUUUCCCAGGACGGAUGGGCCCUAUGUCUCAGGAGUGGGGUUGGGGGACAGCCUUCAGCAGCAGCUCACACCCUACCUUCCCCAGACUUGCACUGGGGUGGGAUU` — result for “RBNS enrichment (R)”: 0.342.
`GCAUAUAUAUUUAUAUUCAUUGAUCAAACUGAUAUGCUACAGGAGAAUGUAUGCAAUGUGUAAAAAAUGCAAAUGGCUGUAUGCAUUGAAUAAAAAUAAUAUACAAUUAG`: “RBNS enrichment (R)” 1.12.
`AAGACUGAUUGCACCUGGGACCCAGGCCCUUUCUUUGGGAUCCAGUCCCAGCCUUCAUCCAUGUGAUUAAGAUCCAGGCCGCUGAAGUUCCCCAGGAAAUGAUCUUCCAC` — result for “RBNS enrichment (R)”: 0.34.
`CUUUUUGUAGUUUACUUAAGCCAAAAUGUGUUUUUCCCUCAAUAGCUUCGCUAAUAUUUUAAACAGUCCUGUAAAAACCCACCAAGGACUUUUUGUAUAGAAAGCACUAC`: “RBNS enrichment (R)” 0.547.
Under “RBNS enrichment (R)”, `GGGCUGCAGAUAAAAAUAGGCAGGAAUCAAAUGACUAAGAAUGUAAUAGGGAAGAAGUGCCCUGCCUGCCAGCUUGGGAGUGAUUUGUACCUGUGUAUUUAUCCUUGAUC` is recorded as 3.01.
Under “RBNS enrichment (R)”, `UCACACCAAUCUGCAGAAACCUCUUCCCUGGGGUGGAAGCCAGAGAGCUUAGAGGAAAAAGGUCAGCUCUCUUCCUGUUAUACAUGGUUAUACAUGGUUGGGGUUUAAAA` is recorded as 0.317.
For `GCCUGCCUUUCUUGAUGUCCAAUGAUGGGGCCUGGAAUGUAUGAGCUAGCAAGGCUUCUUCAGCUUAUUGACCAGCCAGGGUUUCUUCUUGCCUACUCCGGUGCCUCUAC`, “RBNS enrichment (R)” read 2.09.

Study 4
Target: Sal-like protein 4, full length isoform A (SALL4, Homo sapiens, UniProt Q9UJQ4, residues 1-1053)
Sequence of UniProt Q9UJQ4 (whole entry, looked up): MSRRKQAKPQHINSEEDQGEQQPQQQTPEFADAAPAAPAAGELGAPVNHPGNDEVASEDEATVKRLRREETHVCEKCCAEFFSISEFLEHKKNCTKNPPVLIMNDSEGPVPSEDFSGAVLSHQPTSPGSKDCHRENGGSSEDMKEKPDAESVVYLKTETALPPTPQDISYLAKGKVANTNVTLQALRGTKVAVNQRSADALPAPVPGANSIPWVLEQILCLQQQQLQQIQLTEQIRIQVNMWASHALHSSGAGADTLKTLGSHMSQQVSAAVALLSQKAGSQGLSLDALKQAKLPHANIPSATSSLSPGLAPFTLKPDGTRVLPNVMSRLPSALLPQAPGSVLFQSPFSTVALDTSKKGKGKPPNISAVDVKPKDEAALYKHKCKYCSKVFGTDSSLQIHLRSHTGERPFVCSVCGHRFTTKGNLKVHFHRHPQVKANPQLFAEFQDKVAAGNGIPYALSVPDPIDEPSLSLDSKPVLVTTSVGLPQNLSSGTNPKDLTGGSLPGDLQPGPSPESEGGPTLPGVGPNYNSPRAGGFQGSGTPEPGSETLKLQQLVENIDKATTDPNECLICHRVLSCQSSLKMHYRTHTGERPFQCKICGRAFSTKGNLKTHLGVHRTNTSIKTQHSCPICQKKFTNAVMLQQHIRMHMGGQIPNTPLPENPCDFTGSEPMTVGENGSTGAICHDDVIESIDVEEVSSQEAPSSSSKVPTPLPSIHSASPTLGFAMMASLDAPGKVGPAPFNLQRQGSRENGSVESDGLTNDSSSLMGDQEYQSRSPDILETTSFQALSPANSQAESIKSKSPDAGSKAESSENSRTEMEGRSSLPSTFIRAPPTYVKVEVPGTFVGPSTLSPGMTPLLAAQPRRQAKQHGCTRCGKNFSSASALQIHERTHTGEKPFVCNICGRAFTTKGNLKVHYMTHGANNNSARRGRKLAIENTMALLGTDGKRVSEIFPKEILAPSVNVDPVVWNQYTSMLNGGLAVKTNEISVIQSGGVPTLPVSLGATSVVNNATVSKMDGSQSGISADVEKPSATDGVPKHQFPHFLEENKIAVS
Technique: universal PBM
Molecule type: double-stranded DNA, one strand shown
Matrix: in vitro
Concentration: 600 nM
Setting: 8-mer, flanks averaged, mean of replicates
Direction: higher = stronger binding
The E-score of `AGGATCCT` is reported as -0.161.
`CAAGTAGG` gave an E-score of -0.171.
With `GCATTCAA` the E-score was 0.146.
`AAAGAAGA` has an E-score of 0.128.
`CGGCCTTA` has an E-score of -0.0748.
For `CAAGCACA`, the E-score was -0.116.
The E-score of `AATGTCAT` is reported as 0.167.
For `CAGGGTCG`, the E-score was -0.324.
`AGTGAACA` has an E-score of 0.0333.
For `ATTTGACG`, the E-score was 0.116.
For `ACCCCAAC`, the E-score was -0.0921.
`CACCCGCA` has an E-score of -0.205.
`CGGAAAGA` gave an E-score of -0.118.
`CTGATATA` has an E-score of 0.309.
`CCAATGCA` gave an E-score of -0.0562.
For `AGCCCGCT`, the E-score was -0.187.
With `GCGGGACC` the E-score was -0.383.
With `GCCCTGCA` the E-score was -0.289.
With `AAACGCTA` the E-score was 0.0348.
